Experimental data from different studies.
Compare with care: the assays were run in different laboratories.
Target: MAP/microtubule affinity-regulating kinase 4 (MARK4, Homo sapiens, UniProt Q96L34)

SMILES | assay | system | setting | how to read | measurement | value
CC(C)=CC1OC(C)(C)C2C=C3C(=O)C(Cl)=CC(O)C3C3C(O)C4OC4C(=O)C132 (centres unmarked) | cell-free assay, competition with immobilised ligand | – | 10 µM | – | remaining binding | 79%
C=CC(=O)N1Cc2nc(-c3cc(-c4cc(Cl)cnc4Cl)c(F)cc3F)n(-c3ccncn3)c2C1 | cell-free assay, inhibitor | – | 1 µM | – | inhibition | 9.9%
Cc1cnc2nc1Nc1cccc(c1)COC/C=C/COCc1cc(ccc1OCCN1CCOCC1)N2 | cell-free assay | – | 0.1 µM | – | remaining signal | 100%
O=C(Cc1ccc(OCc2ccccc2)cc1)NC1(C(=O)O)CCN(C(=O)c2ccc(-c3cccc(Cl)c3)cc2)CC1 | enzyme activity, inhibitor | – | 10 µM | – | activity vs control | 92%
COc1cc(Nc2nc(C)cc(-c3cnn4nc(OC)ccc34)n2)cc(C(F)(F)F)c1 | inhibitor | – | 1 µM | baseline: control | remaining activity | 100%
C=CC(=O)Nc1cccc(-c2cnc3[nH]cc(C(=O)NC(C)(C)C)c3n2)c1 | kinase activity | – | 0.1 µM | – | inhibition | 54%
Cc1cccc(O[C@H]2CCC[C@@H](C(C)CNCc3ccncc3)C2)c1 (relative stereo) | kinase activity, kinome panel screening | – | 10 µM | – | inhibition | 1%
CN1CCN(Cc2ccc(-c3ccc(CO[C@H]4CCC[C@@H]4NC(=O)c4cc(-c5cnn(C)c5)cnc4N)cc3)cc2)CC1 | enzyme activity, inhibitor | – | 0.1 µM | – | inhibition | 7%
NC(=O)C[C@H]1CCc2sc3ncnc(O[C@H]4CC[C@H](N5CCOCC5)CC4)c3c21 | enzyme activity, inhibitor | – | 10 µM | – | inhibition | 3%
C=CC(=O)Nc1cc(-c2nn(C3CCN(CCNC(=O)[C@H](C)CCC45CC6CC(CC(C6)C4)C5)CC3)c3ncnc(N)c23)ccc1Oc1ccccc1 | inhibitor, KiNativ profiling | biochemical | 2 µM | – | inhibition | 15.6%
COc1c(Cl)cccc1Nc1c(-c2ccncc2C#C[C@@]2(C)CCCN2C(=O)/C=C/CN(C)C)[nH]c2c1C(=O)NCC2 | binding, competition with immobilised ligand | – | 3 µM | – | remaining binding | 97%
Nc1ncc2c(n1)-c1c([nH]c3ccc(C4=CCOCC4)cc13)CCC2 | binding, competition with immobilised ligand | – | 1 µM | – | remaining binding | 90%
CCn1cc(C(=O)O)c(=O)c2c(N)c(F)c(NC3CCCCC3)cc21 | kinase activity | – | 0.1 µM, together with: ATP at Km | – | inhibition | -4%
CN1CC[C@@H](COc2cnc(C#N)cc2-c2ccn3nc(NC(=O)C4CC4)cc3c2)C1 | enzyme activity, inhibitor | – | 1 µM | – | inhibition | 8%
